# Published values pooled from the literature.
# Numbered parts are unrelated; each lists some results of a single study. Changes are numbered by the printed parent chain.
# UniProt Q8RYC6, sequence (whole entry, looked up): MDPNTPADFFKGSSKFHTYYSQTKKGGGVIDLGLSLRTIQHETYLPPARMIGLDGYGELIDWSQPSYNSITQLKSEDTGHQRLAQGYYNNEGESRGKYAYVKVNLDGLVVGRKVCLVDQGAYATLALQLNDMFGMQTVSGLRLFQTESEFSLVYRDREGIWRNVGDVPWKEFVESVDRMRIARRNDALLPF
# UniProt Q38832, sequence (whole entry, looked up): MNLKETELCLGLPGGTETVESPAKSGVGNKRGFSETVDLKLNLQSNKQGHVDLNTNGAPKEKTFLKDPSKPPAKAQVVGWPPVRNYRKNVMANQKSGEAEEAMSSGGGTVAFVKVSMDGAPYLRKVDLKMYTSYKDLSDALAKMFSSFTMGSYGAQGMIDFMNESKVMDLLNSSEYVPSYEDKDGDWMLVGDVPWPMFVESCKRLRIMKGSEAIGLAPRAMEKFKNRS
# UniProt Q9FKM7, sequence (whole entry, looked up): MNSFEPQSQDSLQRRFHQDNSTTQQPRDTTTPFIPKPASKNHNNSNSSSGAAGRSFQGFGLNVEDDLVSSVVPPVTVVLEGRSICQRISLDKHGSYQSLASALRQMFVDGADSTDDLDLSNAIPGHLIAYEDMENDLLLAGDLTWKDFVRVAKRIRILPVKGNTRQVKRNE
# UniProt O24407, sequence (whole entry, looked up): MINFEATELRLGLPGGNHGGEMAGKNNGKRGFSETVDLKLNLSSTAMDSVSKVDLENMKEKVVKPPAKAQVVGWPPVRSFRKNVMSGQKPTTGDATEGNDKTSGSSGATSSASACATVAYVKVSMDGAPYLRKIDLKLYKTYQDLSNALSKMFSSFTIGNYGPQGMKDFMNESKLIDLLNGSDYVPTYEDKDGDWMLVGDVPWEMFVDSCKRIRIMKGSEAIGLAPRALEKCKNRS
# UniProt Q9C5W9, sequence (whole entry, looked up): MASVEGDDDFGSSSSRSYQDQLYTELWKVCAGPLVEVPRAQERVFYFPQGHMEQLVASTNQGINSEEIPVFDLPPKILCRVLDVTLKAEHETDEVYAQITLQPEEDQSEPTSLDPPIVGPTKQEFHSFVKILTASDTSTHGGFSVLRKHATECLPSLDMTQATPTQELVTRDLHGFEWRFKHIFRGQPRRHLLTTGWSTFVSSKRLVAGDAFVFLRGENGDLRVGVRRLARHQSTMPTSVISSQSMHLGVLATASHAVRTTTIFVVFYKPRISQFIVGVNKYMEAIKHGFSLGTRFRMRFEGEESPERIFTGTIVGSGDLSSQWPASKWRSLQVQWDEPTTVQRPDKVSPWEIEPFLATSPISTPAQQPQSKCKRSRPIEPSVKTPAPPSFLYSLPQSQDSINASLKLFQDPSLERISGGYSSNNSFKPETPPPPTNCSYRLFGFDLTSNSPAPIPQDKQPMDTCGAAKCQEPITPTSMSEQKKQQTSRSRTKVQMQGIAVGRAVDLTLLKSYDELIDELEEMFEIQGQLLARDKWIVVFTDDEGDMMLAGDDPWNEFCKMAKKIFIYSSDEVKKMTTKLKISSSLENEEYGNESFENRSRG
# UniProt Q9C5X0, sequence (whole entry, looked up): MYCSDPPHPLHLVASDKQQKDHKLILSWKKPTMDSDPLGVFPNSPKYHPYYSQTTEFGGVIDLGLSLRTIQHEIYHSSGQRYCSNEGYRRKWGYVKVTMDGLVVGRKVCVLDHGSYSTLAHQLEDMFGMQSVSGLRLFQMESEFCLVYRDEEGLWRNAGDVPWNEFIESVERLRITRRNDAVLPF
# UniProt P93024, sequence (whole entry, looked up): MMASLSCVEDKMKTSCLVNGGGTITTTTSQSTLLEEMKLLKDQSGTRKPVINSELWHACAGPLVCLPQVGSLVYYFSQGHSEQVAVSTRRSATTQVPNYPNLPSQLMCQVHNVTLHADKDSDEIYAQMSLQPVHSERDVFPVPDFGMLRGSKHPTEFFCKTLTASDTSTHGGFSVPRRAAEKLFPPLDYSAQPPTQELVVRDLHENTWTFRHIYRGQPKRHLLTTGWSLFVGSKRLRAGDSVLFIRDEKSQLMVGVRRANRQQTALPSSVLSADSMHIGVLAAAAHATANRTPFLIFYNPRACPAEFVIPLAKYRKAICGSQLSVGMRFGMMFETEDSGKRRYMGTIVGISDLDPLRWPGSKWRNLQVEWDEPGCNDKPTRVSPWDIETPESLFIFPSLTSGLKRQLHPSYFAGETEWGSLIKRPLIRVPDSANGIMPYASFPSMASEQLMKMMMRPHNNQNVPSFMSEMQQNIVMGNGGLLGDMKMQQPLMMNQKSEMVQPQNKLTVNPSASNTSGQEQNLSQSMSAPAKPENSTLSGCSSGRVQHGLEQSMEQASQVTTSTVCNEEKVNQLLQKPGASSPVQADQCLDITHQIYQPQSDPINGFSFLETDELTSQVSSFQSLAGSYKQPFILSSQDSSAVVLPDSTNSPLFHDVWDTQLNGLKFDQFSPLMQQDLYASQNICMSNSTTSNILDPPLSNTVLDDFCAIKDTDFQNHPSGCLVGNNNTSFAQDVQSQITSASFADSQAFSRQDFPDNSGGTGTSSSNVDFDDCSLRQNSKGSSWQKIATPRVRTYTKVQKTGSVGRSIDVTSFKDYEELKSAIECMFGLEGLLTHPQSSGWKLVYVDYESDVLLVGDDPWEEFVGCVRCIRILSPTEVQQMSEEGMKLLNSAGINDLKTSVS

# Block 1
# Target: Interferon regulatory factor 5, full length, phosphomimetic (IRF5, Homo sapiens, UniProt Q13568-2, residues 1-514, S451D/S453D/S456D/S462D)
# Method: protein-binding microarray
# Form: double-stranded DNA, one strand shown
# Medium: in vitro
# Concentration: 940 nM top
# Notes: 60-bp whole probe
# Added: salmon DNA 0.4 mg/ml
# Reference: random background probes
# Direction: higher = stronger binding
# Shared flanks, not repeated: GCCTAGCAC … GTCTTGATTCGCTTGACGCTGCTG
Sequence,fitted relative affinity
GACGGTTTCGGACTGGGGATGTGCTAG,5.52 z-score
TTAGATATCGGGACCGGATTAGTGCTA,0.318 z-score
GACGATATGAGTATCGAGACGTGCTAG,1.62 z-score
TTTGGACTGGGGACTGGGTTAGTGCTA,-0.207 z-score
GGTGATTTCAGTTTTCTTTTGTGCTAG,1.07 z-score
TCATATACCTGTATATCACTGTGCTAG,0.227 z-score
GACGGATTCCTTTCCCTGACGTGCTAG,0.378 z-score
TCAGCTTTCCTTTATGTACTGTGCTAG,1.04 z-score
GACGGTTTCCTACTGCTTACGTGCTAG,0.687 z-score
ATTTGTCCCTATTTAAGAGAGTGCTAG,0.563 z-score
TCAGGACTGGACTTTCGGTTAGTGCTA,2.88 z-score
TTAGATCTCAGTTTCGATTAGTGCTAG,8.63 z-score
TTAGGGATCGGGTTTCGGTTAGTGCTA,6.08 z-score
TCACTTTCCCAGCCTGGGACTGTGCTA,0.517 z-score
GGCGAACTGAGACTGGAGACGTGCTAG,-0.391 z-score
TTAGGTATCGGTCTAGGTTAGTGCTAG,10.5 z-score
GACGATATCGGGTATCCAGACGTGCTA,0.127 z-score

# Block 2
# Target: ABI1, truncated, D143A, DHFR fusion (Arabidopsis thaliana)
# Method: DHFR PCA, deep sequencing
# Medium: yeast
# Notes: methotrexate growth selection, single substitutions
# Added: (+)-ABA 4.8 µM
# Reference: wild-type fitted maximum
# Direction: higher = stronger binding
# Starting sequence: PYL1, truncated, DHFR fusion (Arabidopsis thaliana); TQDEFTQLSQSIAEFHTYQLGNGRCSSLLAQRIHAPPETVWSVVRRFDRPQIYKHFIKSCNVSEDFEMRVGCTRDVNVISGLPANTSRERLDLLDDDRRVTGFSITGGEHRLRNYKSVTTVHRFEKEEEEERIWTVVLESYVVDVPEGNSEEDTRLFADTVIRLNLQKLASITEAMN
Change,relative binding score
F103T,-20.2%
S104L,-2.62%
E109C,36%
E147A,71.6%
L138P,-12.6%
S9H,65.9%
S9Y,58.9%
R69A,71.1%
D159H,-6.26%
Y115M,-13.4%
R98Y,8.97%
Y115G,-6.73%
E14V,22.2%

# Block 3
# Target: RING finger protein unkempt homolog, zinc fingers 1-6, SBP tag (UNK, Homo sapiens, UniProt Q9C0B0, residues 30-357)
# UniProt Q9C0B0, sequence (30-357, looked up): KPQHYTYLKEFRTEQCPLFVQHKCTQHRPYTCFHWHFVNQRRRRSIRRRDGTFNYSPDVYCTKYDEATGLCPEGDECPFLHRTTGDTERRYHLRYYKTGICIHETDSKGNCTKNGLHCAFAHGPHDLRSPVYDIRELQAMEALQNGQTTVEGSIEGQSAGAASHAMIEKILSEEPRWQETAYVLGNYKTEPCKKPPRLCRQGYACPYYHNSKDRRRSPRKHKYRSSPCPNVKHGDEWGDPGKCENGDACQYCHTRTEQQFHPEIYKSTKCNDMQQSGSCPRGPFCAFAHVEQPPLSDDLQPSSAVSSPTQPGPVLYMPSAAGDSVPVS
# Method: RNA Bind-n-Seq
# Form: RNA
# Medium: in vitro
# Concentration: 100 nM
# Notes: RNA with constant flanks, vertebrate orthologous sites, ends assumed
# Reference: input RNA pool
# Direction: higher = stronger binding
# Shared flanks, not repeated: GGGAGUUCUACAGUCCGACGAUC … CAACAGAGGAUUGAGCAUCA
Sequence,bound/input enrichment
CAAGCUCAGAUGAAGAUGGUGGUUGUACGUUAUCAUUUCAUUUAGAAAAUAUUUUGAAGCUAGGUAUUAAACUGGAAUAGCUAUUAUACCCCCCCGAGAGUGGGGCAGUUGUGCCCUUAC,1.54 ratio
CCCAAAGGCCAAAUUCCCUCCUCCCUUCUACUGCUUCUACCAACUGGAAGCACCGAAAACUAGAAUUUCAUUUAUUUUGUUUUAAAAAAAACAUUGAUUUCUUGUAACACCCAAUAGGAA,1.39 ratio
UUAAUAGUAUGUGUUCUUUUUCAAGGGUAGUUUUGUGCUAGACUGUGUUAGAUUUAAAAAUUAACAAAUUGGUUUCCAUUUGUUGUGUUUCUUUCAUUAUUGAAAAUAAAUAUAUCUUUG,0.392 ratio
CCUGAAGCUUUGUGUUUGGCUGCACUGCGUAAGCUGCUACAAAUAGAAUAAAGAAUUUCAUAGCCCGAAUCUGCCAUUUAGAUGCAUGGAAAACGGGCUCUGCACAGUGGGUUUGGAGCU,0.559 ratio
GAAGACUUUGUGUGCCAGAUUACCCCAAAAAACAUAAAGCUACUUUUUUACUUGCAUAUUUUUCAAAGUACCUGAAAAAUGGUUUUUCUCCUUUCUAAUGGUCAAAAGAAGGUACAUUUC,0.487 ratio
CCGCUAAACCCCAUUUCUUCUGUUUCAUAGUGCAGAAGUAUUCUUUCUCAGUUAUAUUAUUAGUGGACUUGUUUUAAUUUUAGGGAAACUUCCAGUACAGAUACUGUGAGCUUACAUGGA,2.29 ratio
AAUCAGUAGAAUUACAUGAUACUAAACUUGCAUUUGAAAGGAUAUCCAAGUAUGUGUUGGUAGUUACUAAAAGAAUUAUAGCUGUUAUUGCCUUGUAUUUAUAGUCCUUGUUUCAGGUUU,0.924 ratio
CUCUCUGAGCGAUAGUAUUCCAUCUGUAGCAGAUUCACACUCCAGCCAUUUCUCUGAGUUCAGUUGCUCAGAUAUGGAAAGUAUGAAAACUUCCUGUAGCCACGGUUCCAGCGACUAUCA,0.33 ratio
UUCAUUACCUGAGCCGAGUGGAGGUGACGGAGUUUGAAGACAUCAAGUCAGGCUACAGAAUAGAUUUUGUAAGUGUUUAAUGGUUUGACGUAACGCUGUGGUGACUUUUUUUUUUUUUCC,0.553 ratio
AGUAGUUUUAAGCUUGUUUGCACAGUUCUUUUUUUCCAUUGGAAAUGGAAUUCAUUGCCUUAGGUCUUUUUAAAUAGUGUAUUAUCGUUGGGGCUGGCUCUAUGCUUGAAAACCAGUUUA,2.9 ratio
CCACUUAAUCCCAUCUCUUCAGUUUCAUAGUGCUGCCGUAUUACCUUCAACUCUACCUUUAGUGAACUUAUUUUAAUUCUAGAGAAACUUCGAGUGUGGAUACUGUGAGCUAGAUGGAGA,2.5 ratio

# Block 4
# Target: CCNE1, cyclin fold, Cln2 fusion (human)
# Method: yeast growth competition, sequencing
# Medium: yeast
# Notes: strong parent motif
# Reference: not given
# Direction: higher = stronger binding
# Starting sequence: ANKRD17 docking peptide (human); PSVRRQLFVTVVK
Change,normalised enrichment score
F8L,0.595
V3A,3.38
L7A,1
R5K F8L,1.05
V11A,4.97
R5A L7A,0.452
F8A,1.17
Q6A,1.81
V12A,6.2
V9A,3.87

# Block 5
# Molecule: B1 (IAA12)
# Method: two-hybrid
# Direction: higher = firmer interaction
# B1: IAA12 (Arabidopsis thaliana, UniProt Q38830); chain MRGVSELEVGKSNLPAESELELGLGLSLGGGAWKERGRILTAKDFPSVGSKRSAESSSHQGASPPRSSQVVGWPPIGLHRMNSLVNNQAMKAARAEEGDGEKKVVKNDELKDVSMKVNPKVQGLGFVKVNMDGVGIGRKVDMRAHSSYENLAQTLEEMFFGMTGTTCREKVKPLRLLDGSSDFVLTYEDKEGDWMLVGDVPWRMFINSVKRLRIMGTSEASGLAPRRQEQKDRQRNNPV
partner,reference,positive tests
"ARF18 482-602 (Arabidopsis thaliana, UniProt Q9C5W9)",out of 4 tests,0
"ARF5 788-902 (Arabidopsis thaliana, UniProt P93024)",out of 4 tests,4
"IAA16 (Arabidopsis thaliana, UniProt O24407)",out of 4 tests,4
"IAA14 (Arabidopsis thaliana, UniProt Q38832)",out of 4 tests,3
"IAA33 (Arabidopsis thaliana, UniProt Q9FKM7)",out of 4 tests,1
"IAA32 (Arabidopsis thaliana, UniProt Q8RYC6)",out of 4 tests,0
"IAA34 (Arabidopsis thaliana, UniProt Q9C5X0)",out of 2 tests,1

# A few entries again (block 1):
Sequence,fitted relative affinity
TTAGATATCGGGACCGGATTAGTGCTA,0.318 z-score
GACGATATGAGTATCGAGACGTGCTAG,1.62 z-score
TTTGGACTGGGGACTGGGTTAGTGCTA,-0.207 z-score
GGTGATTTCAGTTTTCTTTTGTGCTAG,1.07 z-score
TCATATACCTGTATATCACTGTGCTAG,0.227 z-score
GACGGATTCCTTTCCCTGACGTGCTAG,0.378 z-score
TCAGCTTTCCTTTATGTACTGTGCTAG,1.04 z-score
GACGGTTTCCTACTGCTTACGTGCTAG,0.687 z-score
ATTTGTCCCTATTTAAGAGAGTGCTAG,0.563 z-score
